Results of several laboratories.
Numbered parts are unrelated; each lists some results of a single study.
Sequence of UniProt O95835 (whole entry, looked up): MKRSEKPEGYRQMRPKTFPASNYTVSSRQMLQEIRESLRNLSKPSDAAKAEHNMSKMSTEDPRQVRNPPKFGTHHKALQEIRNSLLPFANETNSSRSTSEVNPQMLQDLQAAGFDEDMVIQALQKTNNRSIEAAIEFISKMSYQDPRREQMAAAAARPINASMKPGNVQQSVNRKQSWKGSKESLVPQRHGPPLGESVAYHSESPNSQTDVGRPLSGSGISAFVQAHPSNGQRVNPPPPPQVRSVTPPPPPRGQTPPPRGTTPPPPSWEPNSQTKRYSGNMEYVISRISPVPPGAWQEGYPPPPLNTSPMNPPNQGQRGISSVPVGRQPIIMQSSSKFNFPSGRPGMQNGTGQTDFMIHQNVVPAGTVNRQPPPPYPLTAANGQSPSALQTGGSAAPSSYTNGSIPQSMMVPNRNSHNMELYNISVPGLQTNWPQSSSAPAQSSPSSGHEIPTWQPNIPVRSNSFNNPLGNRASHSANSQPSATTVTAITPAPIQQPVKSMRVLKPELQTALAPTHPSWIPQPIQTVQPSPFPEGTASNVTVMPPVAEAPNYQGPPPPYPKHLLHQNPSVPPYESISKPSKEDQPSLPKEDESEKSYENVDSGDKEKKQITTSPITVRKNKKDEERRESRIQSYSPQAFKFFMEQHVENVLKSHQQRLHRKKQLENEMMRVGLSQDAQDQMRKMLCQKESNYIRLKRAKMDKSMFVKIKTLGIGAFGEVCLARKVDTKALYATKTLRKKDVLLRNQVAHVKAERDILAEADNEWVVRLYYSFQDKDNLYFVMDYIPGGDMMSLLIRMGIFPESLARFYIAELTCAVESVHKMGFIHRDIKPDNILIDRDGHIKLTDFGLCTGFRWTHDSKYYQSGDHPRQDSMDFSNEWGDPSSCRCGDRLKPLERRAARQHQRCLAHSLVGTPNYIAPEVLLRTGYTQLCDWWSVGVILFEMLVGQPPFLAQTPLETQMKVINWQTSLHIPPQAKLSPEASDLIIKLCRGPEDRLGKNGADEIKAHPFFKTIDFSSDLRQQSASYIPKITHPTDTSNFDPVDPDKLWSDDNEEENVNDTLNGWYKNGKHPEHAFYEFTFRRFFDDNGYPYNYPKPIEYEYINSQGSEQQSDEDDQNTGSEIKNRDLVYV
Sequence of UniProt Q00535 (whole entry, looked up): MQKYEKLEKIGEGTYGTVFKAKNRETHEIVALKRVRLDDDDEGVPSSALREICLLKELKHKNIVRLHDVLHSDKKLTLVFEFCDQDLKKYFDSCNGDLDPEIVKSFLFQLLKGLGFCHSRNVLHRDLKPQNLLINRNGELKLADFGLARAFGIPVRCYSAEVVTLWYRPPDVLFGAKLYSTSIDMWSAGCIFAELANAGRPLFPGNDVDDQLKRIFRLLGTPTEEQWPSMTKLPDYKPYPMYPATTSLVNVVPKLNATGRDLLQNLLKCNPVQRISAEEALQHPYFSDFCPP
Sequence of UniProt P07949 (whole entry, unmodified, looked up): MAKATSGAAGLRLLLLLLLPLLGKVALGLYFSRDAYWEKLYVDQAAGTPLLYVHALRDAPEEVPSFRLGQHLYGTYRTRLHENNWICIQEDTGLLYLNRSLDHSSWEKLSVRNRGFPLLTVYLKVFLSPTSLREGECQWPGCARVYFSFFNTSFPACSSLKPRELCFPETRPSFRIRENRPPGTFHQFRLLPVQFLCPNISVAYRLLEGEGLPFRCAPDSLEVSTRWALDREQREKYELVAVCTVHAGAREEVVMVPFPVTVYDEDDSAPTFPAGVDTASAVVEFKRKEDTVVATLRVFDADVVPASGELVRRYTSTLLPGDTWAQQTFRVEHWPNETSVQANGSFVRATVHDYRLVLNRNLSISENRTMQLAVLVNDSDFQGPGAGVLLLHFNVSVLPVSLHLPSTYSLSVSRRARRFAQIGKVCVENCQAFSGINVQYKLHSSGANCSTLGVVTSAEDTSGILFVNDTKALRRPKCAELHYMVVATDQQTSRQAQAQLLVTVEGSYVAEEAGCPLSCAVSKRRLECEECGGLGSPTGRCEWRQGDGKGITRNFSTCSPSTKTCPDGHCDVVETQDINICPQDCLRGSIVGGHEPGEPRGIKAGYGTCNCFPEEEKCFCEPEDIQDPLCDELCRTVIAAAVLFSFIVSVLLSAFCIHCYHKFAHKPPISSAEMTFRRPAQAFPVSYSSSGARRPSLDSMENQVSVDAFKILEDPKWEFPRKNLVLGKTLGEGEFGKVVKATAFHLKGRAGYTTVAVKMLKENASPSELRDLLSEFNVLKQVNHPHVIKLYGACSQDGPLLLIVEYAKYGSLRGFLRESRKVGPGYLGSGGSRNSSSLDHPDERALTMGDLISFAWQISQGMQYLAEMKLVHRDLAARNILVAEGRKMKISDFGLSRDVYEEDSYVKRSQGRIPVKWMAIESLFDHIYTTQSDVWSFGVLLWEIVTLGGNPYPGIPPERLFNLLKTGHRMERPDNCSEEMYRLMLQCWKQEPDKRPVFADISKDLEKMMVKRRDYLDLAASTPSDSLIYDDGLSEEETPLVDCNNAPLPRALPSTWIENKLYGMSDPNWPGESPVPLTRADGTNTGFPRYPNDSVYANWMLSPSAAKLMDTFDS
Sequence of UniProt P53667 (whole entry, looked up): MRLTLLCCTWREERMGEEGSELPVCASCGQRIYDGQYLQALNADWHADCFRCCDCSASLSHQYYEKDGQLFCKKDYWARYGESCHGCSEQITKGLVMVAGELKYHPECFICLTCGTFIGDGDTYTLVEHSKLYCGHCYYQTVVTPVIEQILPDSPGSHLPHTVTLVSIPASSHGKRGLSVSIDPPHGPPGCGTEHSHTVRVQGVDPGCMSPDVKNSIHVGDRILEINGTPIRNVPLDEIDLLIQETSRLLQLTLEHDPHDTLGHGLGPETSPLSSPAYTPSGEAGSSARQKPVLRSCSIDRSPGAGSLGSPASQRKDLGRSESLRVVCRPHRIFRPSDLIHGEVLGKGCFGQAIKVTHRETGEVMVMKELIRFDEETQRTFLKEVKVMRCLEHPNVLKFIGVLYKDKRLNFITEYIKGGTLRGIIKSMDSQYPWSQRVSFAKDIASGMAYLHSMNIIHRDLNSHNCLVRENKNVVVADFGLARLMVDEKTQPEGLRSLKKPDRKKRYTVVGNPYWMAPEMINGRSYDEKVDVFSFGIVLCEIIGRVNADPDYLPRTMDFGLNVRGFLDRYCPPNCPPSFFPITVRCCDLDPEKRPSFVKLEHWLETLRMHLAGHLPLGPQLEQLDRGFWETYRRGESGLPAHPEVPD

Series 1
Target: Ras GTPase-activating protein-binding protein 1, RRM domain (G3BP1, Homo sapiens, UniProt Q13283)
Sequence of UniProt Q13283 (whole entry, looked up): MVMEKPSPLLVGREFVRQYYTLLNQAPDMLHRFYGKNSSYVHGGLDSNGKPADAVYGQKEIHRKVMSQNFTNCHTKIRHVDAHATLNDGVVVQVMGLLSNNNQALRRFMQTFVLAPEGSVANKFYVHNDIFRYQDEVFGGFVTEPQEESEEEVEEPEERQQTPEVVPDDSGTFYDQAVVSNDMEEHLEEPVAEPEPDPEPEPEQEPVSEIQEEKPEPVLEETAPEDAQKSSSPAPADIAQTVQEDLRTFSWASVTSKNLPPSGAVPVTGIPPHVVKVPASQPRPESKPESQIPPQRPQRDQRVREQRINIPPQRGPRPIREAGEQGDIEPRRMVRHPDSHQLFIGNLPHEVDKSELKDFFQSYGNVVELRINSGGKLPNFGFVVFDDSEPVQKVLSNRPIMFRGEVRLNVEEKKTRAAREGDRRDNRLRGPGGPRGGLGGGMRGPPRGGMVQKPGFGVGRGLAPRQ
Method: RNA Bind-n-Seq
Form: RNA
Medium: in vitro
Tested at: 1 µM
Setting: whole 134-nt RNA, ends assumed
Added: 150 mM KCl
Reference: input library
Direction: higher = stronger binding
Shared flanks, not repeated: GGGAGUUCUACAGUCCGACGAUC … UGGAAUUCUCGGGUGUCAAGG
| Sequence | log2 enrichment |
| --- | --- |
| GUCCUGUGCUACACAUCGUAUGUACCGAAUCGGGUUUUUGGGAAAAAGGGUUUUUGGGAAAGUAUUAUGUUACGCCGUUCGGAUCUGCAC | -0.0179 |
| CCUGUGCUACACAUCGUAUGUACCGAAUCGGGAAAAAAGGGAAAAAAGGGAAAAAAGGGGAAAGUAUUAUGUUACGCCGUUCGGAUCUGC | 0.0083 |
| CUCAAGUCCUGUGCUACACAUCGUAUGUACCGAAUCGGAGGAAAAAGGUUUGGAAAGUAUUAUGUUACGCCGUUCGGAUCUGCACUUCCA | -0.189 |
| GUCCUGUGCUACACAUCGUAUGUACCGAAUCGGGGAAAAAGGAAAAAGGGAAAAAGGGGAAAGUAUUAUGUUACGCCGUUCGGAUCUGCA | 0.0504 |
| UCCUGUGCUACACAUCGUAUGUACCGAAUCGGGGAAAGGGGAAAAAGGGGAAAAAGGGGAAAGUAUUAUGUUACGCCGUUCGGAUCUGCA | 0.94 |
| UAACUUUAGAGUAGGAUCUGAUGGAUAUGGCAGUGGACGUGGAUUUGGGGAUGGCUAUAAUGGGUAUGGAGGAGGACCUGGAGGUGGCAA | -0.893 |
| ACCAUGCAGGUGGGCAUCUUUGGGAAGUAGGGCAAGGGGGGGAUAGGGAGGGGGGUAACACUUUGGGAACAGGUGGUCCCAGGUCGUUUC | -0.346 |
| UCAAGUCCUGUGCUACACAUCGUAUGUACCGAAUCGGGUUUGGGUUUGGGUUUGGAAAGUAUUAUGUUACGCCGUUCGGAUCUGCACUUC | -0.426 |

Series 2
SMILES: CN([C@@H]1CCc2c(CC(=O)O)c3cc(S(C)(=O)=O)ccc3n2C1)S(=O)(=O)c1ccc(F)cc1
Effect on: cell-free assay
Method: competition with immobilised ligand
Tested at: 1 µM
| target | remaining binding |
| --- | --- |
| RET (Homo sapiens, UniProt P07949, V804M) | 100% |
| LATS1 (Homo sapiens, UniProt O95835) | 61% |
| LIM domain kinase 1 (LIMK1, Homo sapiens, UniProt P53667) | 100% |
| CDK5 (Homo sapiens, UniProt Q00535) | 86% |

Series 3
Target: Serine/threonine-protein kinase Chk1 (CHEK1, Homo sapiens, UniProt O14757)
Effect on: enzyme activity
Mode: inhibitor
Tested at: 0.5 µM
Reference: control
Residues (O14757 1-476): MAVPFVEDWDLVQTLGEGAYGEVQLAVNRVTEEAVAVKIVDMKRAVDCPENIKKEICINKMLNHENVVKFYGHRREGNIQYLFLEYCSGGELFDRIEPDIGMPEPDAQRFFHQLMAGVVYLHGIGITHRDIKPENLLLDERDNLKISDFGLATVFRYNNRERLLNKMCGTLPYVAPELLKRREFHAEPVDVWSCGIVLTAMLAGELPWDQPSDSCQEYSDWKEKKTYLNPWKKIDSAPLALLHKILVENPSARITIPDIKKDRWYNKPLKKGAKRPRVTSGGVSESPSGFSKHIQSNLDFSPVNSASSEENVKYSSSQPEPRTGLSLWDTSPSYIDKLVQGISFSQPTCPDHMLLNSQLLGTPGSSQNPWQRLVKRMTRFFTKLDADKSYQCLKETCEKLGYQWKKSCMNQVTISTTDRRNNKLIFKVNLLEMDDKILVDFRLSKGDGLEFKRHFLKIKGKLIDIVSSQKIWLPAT
| Structure (SMILES) | remaining activity [%] |
| --- | --- |
| O=C1NC(=O)C(c2cn(CCCn3ccnc3)c3ccccc23)=C1Nc1ccccc1 | 76.6 |
| Nc1[nH]nc2nc3ccccc3nc12 | 187 |
| Cc1ccc(Nc2nccc(N(C)c3ccc4c(C)n(C)nc4c3)n2)cc1S(N)(=O)=O | 110 |
| COc1ccc(CNC(=O)Nc2ncc([N+](=O)[O-])s2)cc1 | 98 |
| Oc1ccc(-c2nc(-c3ccncc3)c(-c3ccc(F)cc3)[nH]2)cc1 | 98.9 |
| COc1cc2ncnc(Nc3ccc(F)c(Cl)c3)c2cc1OCCCN1CCOCC1 | 95.3 |
| CCOC(=O)c1c(C)[nH]c(/C=C2\C(=O)Nc3ccccc32)c1C | 89.4 |
| COc1cc2nccc(Oc3ccc(NC(=S)NC(=O)c4ccccc4C)cc3)c2cc1OC | 95.1 |
| O=c1c2ccccc2[nH]c(=S)n1CCN1CCC(=C(c2ccc(F)cc2)c2ccc(F)cc2)CC1 | 108 |
| COc1cc2ncnc(Nc3ccc(Oc4ccccc4)cc3)c2cc1OC | 97.4 |
| Cc1cccc(-c2[nH]c(C(C)(C)C)nc2-c2ccc3c(c2)OCO3)n1 | 89.8 |
| OCC(O)CCON=C1C(c2c(O)[nH]c3ccccc23)=Nc2ccccc21 (stereo not drawn) | 67 |

Other studies, line by line
Method: cross-linking MS
| Substance | partner | medium | setting | added | measurement | result |
| --- | --- | --- | --- | --- | --- | --- |
| MDH2 (Homo sapiens, UniProt P40926) | DOCK7 (Homo sapiens, UniProt Q96N67) | cell fractions |  | DSSO | cross-linked residues | T235 to S1826 |
| RNF40 (Homo sapiens, UniProt O75150) | RNF20 (Homo sapiens, UniProt Q5VTR2) |  | hits only |  | interaction screen | cross-linked |
| NDUFS6 (Homo sapiens, UniProt O75380) | NDUFA12 (Homo sapiens, UniProt Q9UI09) | cell fractions |  | DMTMM | cross-linked residues | E74 to K107 |

A few entries again (series 3):
| Structure (SMILES) | remaining activity [%] |
| --- | --- |
| Cc1cccc(-c2[nH]c(C(C)(C)C)nc2-c2ccc3c(c2)OCO3)n1 | 89.8 |
